Measurements collected from several papers.
Parts stem from different laboratories: compare values within a part only.

Study 1
Target: TAR DNA-binding protein 43, full length, His tag (TARDBP, Homo sapiens, UniProt Q13148, residues 1-414)
Method: RNA Bind-n-Seq
Form: RNA
Matrix: in vitro
Concentration: 20 nM
Setting: 6-mer, flanks averaged, single round
Together with: 150 mM KCl
Reference: input library
Direction: higher = stronger binding
`UUGAUG`: “6-mer enrichment (R)” 0.816.
Under “6-mer enrichment (R)”, `UACAGA` is recorded as 0.653.
Under “6-mer enrichment (R)”, `UUAGUG` is recorded as 0.882.
For `UGUAUU`, “6-mer enrichment (R)” read 0.684.
`CGAGUA` — result for “6-mer enrichment (R)”: 0.795.
`GCAAGU` — result for “6-mer enrichment (R)”: 0.925.
Under “6-mer enrichment (R)”, `CUUGUU` is recorded as 0.642.
`CCCGCA`: “6-mer enrichment (R)” 0.654.
Under “6-mer enrichment (R)”, `AAGACG` is recorded as 0.881.
`UGCUCA` — result for “6-mer enrichment (R)”: 0.607.
Under “6-mer enrichment (R)”, `UUCUUA` is recorded as 0.565.
For `AGAGUG`, “6-mer enrichment (R)” read 1.61.
For `GAACAG`, “6-mer enrichment (R)” read 1.03.

Study 2
Target: Sal-like protein 4, full length isoform A (SALL4, Homo sapiens, UniProt Q9UJQ4, residues 1-1053)
Chain of UniProt Q9UJQ4 (whole entry, looked up): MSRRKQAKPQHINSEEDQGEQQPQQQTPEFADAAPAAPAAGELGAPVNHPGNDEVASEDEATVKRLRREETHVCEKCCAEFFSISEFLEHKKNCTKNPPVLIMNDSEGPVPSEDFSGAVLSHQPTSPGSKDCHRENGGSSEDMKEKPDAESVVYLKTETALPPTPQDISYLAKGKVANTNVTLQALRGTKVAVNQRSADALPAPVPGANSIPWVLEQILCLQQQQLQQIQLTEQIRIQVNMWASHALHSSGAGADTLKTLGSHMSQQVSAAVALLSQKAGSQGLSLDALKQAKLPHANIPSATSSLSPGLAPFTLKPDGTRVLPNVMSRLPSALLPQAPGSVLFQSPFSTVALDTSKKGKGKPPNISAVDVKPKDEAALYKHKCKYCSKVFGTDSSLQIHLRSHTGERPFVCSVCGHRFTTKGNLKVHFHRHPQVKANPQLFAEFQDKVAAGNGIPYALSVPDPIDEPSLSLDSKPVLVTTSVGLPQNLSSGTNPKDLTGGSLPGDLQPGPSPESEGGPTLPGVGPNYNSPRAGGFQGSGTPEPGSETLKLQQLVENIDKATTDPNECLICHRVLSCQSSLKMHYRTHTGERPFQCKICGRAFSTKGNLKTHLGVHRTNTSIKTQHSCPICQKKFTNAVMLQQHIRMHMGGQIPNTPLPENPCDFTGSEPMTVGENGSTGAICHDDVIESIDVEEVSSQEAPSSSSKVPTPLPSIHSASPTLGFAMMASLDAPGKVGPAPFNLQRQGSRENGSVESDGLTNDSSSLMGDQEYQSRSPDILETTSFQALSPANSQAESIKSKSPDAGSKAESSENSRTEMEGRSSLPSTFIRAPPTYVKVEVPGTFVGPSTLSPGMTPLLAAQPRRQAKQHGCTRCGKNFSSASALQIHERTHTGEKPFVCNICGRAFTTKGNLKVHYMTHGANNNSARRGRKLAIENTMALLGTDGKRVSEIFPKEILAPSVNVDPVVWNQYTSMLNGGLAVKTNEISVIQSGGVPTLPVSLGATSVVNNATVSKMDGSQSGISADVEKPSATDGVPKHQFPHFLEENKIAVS
Method: universal PBM
Form: double-stranded DNA, one strand shown
Matrix: in vitro
Concentration: 600 nM
Setting: 8-mer, flanks averaged, mean of replicates
Direction: higher = stronger binding
With `TCATTGAA` the E-score was 0.181.
For `CTTGTATC`, the E-score was 0.161.
`AATTTTCA` gave an E-score of 0.345.
With `GGTGAATA` the E-score was 0.0962.
With `AAGGAAAT` the E-score was 0.287.
For `CGTAAATC`, the E-score was 0.0634.
For `CAACAGCA`, the E-score was -0.0556.
With `CCCTGCAC` the E-score was -0.337.
For `CAAATACG`, the E-score was 0.11.
For `AGCGGCAG`, the E-score was -0.301.
`CACACCAA` gave an E-score of 0.0475.
For `AAGTCCTC`, the E-score was -0.172.
With `CTCGCCAG` the E-score was -0.287.
`CTGATGGC` has an E-score of -0.0691.
`ACGTGAGA` has an E-score of 0.0405.
`AGCCTAAG` has an E-score of -0.169.
With `AATCGCCC` the E-score was -0.176.
The E-score of `GAACGTCC` is reported as -0.0858.
`GCACCAAC` has an E-score of -0.28.
The E-score of `GCATGTAC` is reported as -0.056.
`ATCTGAGG` gave an E-score of -0.0723.
`TGTCACAA` has an E-score of 0.221.

Study 3
Target: Centromere-binding protein 1, full length, His-tagged (CBF1, Saccharomyces cerevisiae, UniProt P17106, residues 1-351)
Chain of UniProt P17106 (whole entry, looked up): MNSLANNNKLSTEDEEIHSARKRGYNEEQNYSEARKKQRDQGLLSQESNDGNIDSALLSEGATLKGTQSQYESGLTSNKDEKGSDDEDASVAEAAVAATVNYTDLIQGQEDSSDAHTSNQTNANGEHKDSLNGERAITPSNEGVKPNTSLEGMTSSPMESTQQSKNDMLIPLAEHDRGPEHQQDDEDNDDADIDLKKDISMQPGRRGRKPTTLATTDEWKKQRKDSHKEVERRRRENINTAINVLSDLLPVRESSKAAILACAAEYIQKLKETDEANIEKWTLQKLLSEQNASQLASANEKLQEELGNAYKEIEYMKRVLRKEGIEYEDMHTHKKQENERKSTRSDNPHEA
Method: competition protein-binding microarray
Form: double-stranded DNA, one strand shown
Matrix: in vitro
Concentration: 2 µM
Setting: whole 60-bp probe, lowest competitor level
Together with: Pho4 competitor, 0.05 µM
Direction: higher = stronger binding
For `TATGGGTTGTCTGAACCCGTGACTCGTAGATCAGAAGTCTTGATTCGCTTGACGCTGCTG`, the fluorescence intensity was 1080 a.u.
With `ACAATGTTTCAACTTCGCGTGCTGTTAAAAAAGTACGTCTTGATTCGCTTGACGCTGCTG` the fluorescence intensity was 97.7 a.u.
The fluorescence intensity of `GAGTGCTCAGAAAACCCCGTGGATTACCCAACGGTCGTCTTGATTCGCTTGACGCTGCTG` is reported as 71.7 a.u.
For `CTTTCCCGATCTTTTCACGTGTGCTTAGCACATTTGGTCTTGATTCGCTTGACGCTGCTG`, the fluorescence intensity was 797 a.u.
With `CATACCCAACCTTTTCACGTGTCTTAAGATATTTGTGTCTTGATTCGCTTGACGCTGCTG` the fluorescence intensity was 1320 a.u.
The fluorescence intensity of `AAGTTATTGGTGTTCGTCGTGCCGATTGGAGAATTGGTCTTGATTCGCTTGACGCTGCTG` is reported as 80.9 a.u.
For `TAAGTTTTTGGCCTGTGCGTGTTGATAAGGGAAAGAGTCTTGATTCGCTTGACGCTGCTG`, the fluorescence intensity was 86.8 a.u.
The fluorescence intensity of `TTAATGCAAAGTGGACACGTTCAGTTACTATTTCCTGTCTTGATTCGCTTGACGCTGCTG` is reported as 88.1 a.u.
`CTAACGAAGGTTTGTCACTAAACTTACAAGCCAAGTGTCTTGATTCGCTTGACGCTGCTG` has a fluorescence intensity of 67.3 a.u.
`GTATGCACTTGAAACAACGTGTAGACCATCAAGTTGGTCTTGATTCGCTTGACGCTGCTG` has a fluorescence intensity of 117 a.u.
`CTTCTGTAAATTTGCAAAGTGGGTGGACGCGCCCCGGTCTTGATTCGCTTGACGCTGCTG` gave a fluorescence intensity of 97.3 a.u.
`CCCGGGGCGTCGGCGCACGCGGTCCCCACCGGCCGGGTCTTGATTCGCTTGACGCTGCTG` has a fluorescence intensity of 43.4 a.u.
`CGTAGGGCTGATATCCACCTGATCGACAATGTCCAAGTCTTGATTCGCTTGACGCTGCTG` has a fluorescence intensity of 187 a.u.
The fluorescence intensity of `CTTTCCCGATCTTGGCACGTGTTTTTAGCACATTTGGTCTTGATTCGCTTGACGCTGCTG` is reported as 2310 a.u.
With `CATACCCAACCTTGTGAGGTGGGTGAAGATATTTGTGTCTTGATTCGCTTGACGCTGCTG` the fluorescence intensity was 61 a.u.
For `CTTGGCAAGTTTCCCCTCGTGGTGAAGGATGGCTCTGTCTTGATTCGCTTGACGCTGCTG`, the fluorescence intensity was 69.5 a.u.
The fluorescence intensity of `AAATTACTAAGTTTTCACGTGGGATACCCCGTATGAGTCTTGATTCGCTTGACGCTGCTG` is reported as 729 a.u.
`CTAACGAAGGTTTGCACCGTGGGTGACAAGCCAAGTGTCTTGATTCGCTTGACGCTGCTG` has a fluorescence intensity of 70.1 a.u.
`CATGGGGTTTATCCACTCGTGTCCTTGGTTTCATGGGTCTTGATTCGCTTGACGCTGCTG` has a fluorescence intensity of 91.5 a.u.
The fluorescence intensity of `GCTGCTCTGTACTGTCACATGATTCTTTCCCAACTCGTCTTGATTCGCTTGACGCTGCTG` is reported as 1100 a.u.
With `CCCTAAAGTTTGGTGCACGTGGTTTTCTCTCGCTCTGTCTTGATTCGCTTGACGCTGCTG` the fluorescence intensity was 2950 a.u.
With `TATCAAATTTGCGGCCACGCAAGTAACTACGTAGGTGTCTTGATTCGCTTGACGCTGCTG` the fluorescence intensity was 77 a.u.
With `GTCTTGTCTCATTGGCCAGTGGGTGTCCCCACTTCAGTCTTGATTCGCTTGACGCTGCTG` the fluorescence intensity was 65.1 a.u.
`CGGGGTTAAGTTTGCTGCGTGGGTGGCTTGCAGCAGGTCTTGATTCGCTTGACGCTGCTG` gave a fluorescence intensity of 71.5 a.u.

Study 4
Target: RNA binding protein fox-1 homolog 2, RRM domain, GST-SBP tag (RBFOX2, Homo sapiens, UniProt O43251-10, residues 100-194)
Method: RNA Bind-n-Seq
Form: RNA
Matrix: in vitro
Concentration: 365 nM
Setting: natural RNA segment, single round, ends assumed
Reference: no-protein control
Direction: higher = stronger binding
Construct (chain): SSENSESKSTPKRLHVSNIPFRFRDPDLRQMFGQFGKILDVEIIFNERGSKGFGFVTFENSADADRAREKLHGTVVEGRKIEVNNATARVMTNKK
`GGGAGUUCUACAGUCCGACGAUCAAGGAAUUUUUCCCUCCAAAGGCCCCCUGAAGUCCUAGUUGGCAUUGGCCUGGCACAUGCUUUAUGUUAGGCCUCCCGUUGGGAUGGCUGAGAAUCAUGAAAGACAGAUCUGGAAUUCUCGGGUGCCAA`: “RBNS enrichment (R)” 0.327.
For `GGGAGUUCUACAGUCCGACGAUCUUGGAUUGCGUUUUGCUUUUUAUUUCUUUAUAAAAAUAUGUCAAAAACAGUUUUUAAUUUUAGAAAUCUUAUACUUGAAAGAAACCUCAAUUAUCAGUGGCUUUAUGAAGUGGAAUUCUCGGGUGCCAA`, “RBNS enrichment (R)” read 0.528.
`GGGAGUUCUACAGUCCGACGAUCUCGGUCAGAAGCCCACAGACCCGGAAGUUACCUUUCUUCCCGCCUCCCUGGACCAUAGAAGAGAUGUCACUCCUCUCUGGGUUUUAGUGGAGGGAGGGAGGCCUUCCAUUUGGAAUUCUCGGGUGCCAA`: “RBNS enrichment (R)” 0.19.
For `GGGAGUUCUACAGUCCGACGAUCAUGCUGGGAAGCGGCAACUUUGGGGUUGAACUUACUUGAAUGGAUUAAAAAUUGCAUUGUGUUACAGAGCUAGAAAAUUUUAUGUAUGAAAAACGAUAAUAGCCUUACACUGGAAUUCUCGGGUGCCAA`, “RBNS enrichment (R)” read 11.2.
`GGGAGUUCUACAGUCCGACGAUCUGGUUUCCAUGUGGCAAGAUCCCCGAGAAAACACAGCUAGGUGACUUUCUGACAAGCUGAAGCUAAUUGGUUCUUGAAUCUGAGUUGUUUCAAUUUAGGCCAAGUACUAGUGGAAUUCUCGGGUGCCAA` — result for “RBNS enrichment (R)”: 0.284.
`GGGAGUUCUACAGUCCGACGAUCAGUGAAGAAGUUUUUUUUAAUUUUUGGAUGGGAUAUUCGCAAAUAUCUGUAUUAUACACUAAGCUAUUACAAUGGUACUUAAAAUAAUGUAAAUUUGAAGUCAUUGUUAUUGGAAUUCUCGGGUGCCAA` — result for “RBNS enrichment (R)”: 0.974.
For `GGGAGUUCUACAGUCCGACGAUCGGAAGUUUUGUUUACUAGGAGCCUGACUUCCCAGCUCACAAAGGGUGAAAUGAAAGCUGAAGUACAGACAGGAUCUUAGUAGGUAUUUUAGGUCCAGGGCCAUGAAGACUUGGAAUUCUCGGGUGCCAA`, “RBNS enrichment (R)” read 0.561.
`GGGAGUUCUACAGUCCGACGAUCAAUGAAGGAGCAGCCUUCUGUUUACUAGAAAAAUGUUUGGGUUCACACGUGGUGCUGCUGCCCUGGGUACAGCCCACCAACACCCAGGGCCAGCCAGUAUCACCAGACCUUGGAAUUCUCGGGUGCCAA` — result for “RBNS enrichment (R)”: 0.369.
`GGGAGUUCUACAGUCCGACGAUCUAGCUUUCUCUGGCAUUAGGGAGAGAGAACCCUGCUUGCUUCCACUUAACUCCUGGUGGAAGAGGGGCAGGCACGUUCGAAGCUUCUGGAUUCAUUUUUCCUCCACUUUCUGGAAUUCUCGGGUGCCAA` — result for “RBNS enrichment (R)”: 0.396.
For `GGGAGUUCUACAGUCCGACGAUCCAGUACCUGGGAAGUACGCCUGUGGGCUCUGGGGUCUAUCGCCUGCAUCAAGGAAAAGGUAUGAUGCCGCCGCCGCCUAUGGGCAUGAUGCCGCCGCCUCCGCCACCUCCUGGAAUUCUCGGGUGCCAA`, “RBNS enrichment (R)” read 0.267.
Under “RBNS enrichment (R)”, `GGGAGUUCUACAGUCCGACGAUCCUUUGAGAGAGGGUUUGGAGGGCAAGGGGCUGCAUUCCUCUGAGGGACUUGGCCUGAGGCCUUUCGGGCCUCUCCAGUGGGUUCUGUUUAUCCUCUCAUGGGUGAUUAUCUGGAAUUCUCGGGUGCCAA` is recorded as 0.275.
Under “RBNS enrichment (R)”, `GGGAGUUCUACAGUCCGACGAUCACUUUAGCCUAUAUUACCAGUGAAAUGUAGGCACUGUCUUCACGUGCUGUCCUGACCACAGAGUCUCCAGAACUGAGGACAUAAUUGCUCCUGUAUUUCUGUGUUCCUCGUGGAAUUCUCGGGUGCCAA` is recorded as 0.306.

Some of these lines once more (study 2):
`GCACCAAC` has an E-score of -0.28.
`TGTCACAA` has an E-score of 0.221.
For `CTTGTATC`, the E-score was 0.161.
`CACACCAA` gave an E-score of 0.0475.
